Measured values collected from several papers.
A part holds a random share of what one study measured.

Set 1 — technique: RNA Bind-n-Seq; form: RNA; medium: in vitro; concentration: 20 nM; notes: 6-mer, flanks averaged, single round; added: 150 mM KCl; baseline: input library; direction: higher = stronger binding; measurement: 6-mer enrichment (R)
Target: TAR DNA-binding protein 43, full length, His tag (TARDBP, Homo sapiens, UniProt Q13148, residues 1-414)
AACUUA: 0.589
UGCAUA: 0.658
GUAGAG: 1.64
AUCAAC: 0.578
CAAUUC: 0.578
GCUUAA: 0.65
GCGAAA: 0.994
GGCGUC: 1.42
GAUGCG: 1.56
UACGAC: 0.625
CCUGUG: 0.852
GGAUUG: 1.42
AUCCCG: 0.61

Set 2 — technique: RNA Bind-n-Seq; form: RNA; medium: in vitro; concentration: 365 nM; baseline: no-protein control; direction: higher = stronger binding; measurement: RBNS enrichment (R)
Target: RNA binding protein fox-1 homolog 2, RRM domain, GST-SBP tag (RBFOX2, Homo sapiens, UniProt O43251-10, residues 100-194)
Notes: natural RNA segment, single round, ends assumed
Constant ends, left off below: GGGAGUUCUACAGUCCGACGAUC … UGGAAUUCUCGGGUGCCAA
Residues (chain): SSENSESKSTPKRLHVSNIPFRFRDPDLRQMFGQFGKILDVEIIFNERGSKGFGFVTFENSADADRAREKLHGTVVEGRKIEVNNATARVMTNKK
GCAAAAGGGUCACCAGAGGCUUGAGGCCAGCCAGGGCUCCAUAAGGAGAUCAGCCGCCCCCACCCACACACACACCAAGAAAAGGCGGGGUGAGGGAGGGAUCUAAGUAG: 0.387
GGAAUGUGUGAAAAACAGCUGCUCUCCUUGUCCCAGCUUUGUGAUUGAGCCCUCUGUCUUGCUCUCUCUGCCUUCCCUGUGUCUUUCUUCUCUUACCAGAGCAUCUGUUU: 0.736
UCCCUCAGCAGAAACGUGUUUAUCAGCAAGUCGUGAGUCAAACUGCUGCCUUUUAAAAAACCCACAAAAUGCUGAUUCAGUUCAAAAUUAAUGCAAAUGUUUCAAAACUG: 1.02
UUUUUGUAUGCUGUGAUAAAAGAGAAAUGAAAAGUGCCAGUCACUGUGUGGUGUCUAGGAAAAUCAUAUAUAUUUUUUUCUCCAAGAAAUAAAUUCAUCCUGGACAUUGG: 0.513
CUAUGCUGCAAUAACGGGAGAGAUCCUGUCCAAGGAAGUCUAACGUCUAUAAAAAUGGAGUCACUGGGAUAUCAAUGAAGAAAUCAAACUGUUUAAUUUUAAUUCAGUUG: 0.274
UGUAUUCAGACAGUUAGAGUUUUGGAAGCACACUGGUGAGUAGCUUUUUGCCCCUCCUUCCUUAGCAAGCCCGUUUGAUUGACAGCUCUCCUGCUCUGAGUUCACUCUGU: 0.337
UUUCUCUUGUUCUUGAAACAUUGCAACCAAAAAGGUCAGCACAAAGGCCUUCACCUACGUGAAGACCUCCUGGUAGGAUCUGUCCAUGGGAUGGAGAACCACUCUGUCCA: 0.256
GUCCAGAAGCCCUGGCACAGAAGUUCUUGGCCAGUCUCAUGUCACAUGUCACGAUGUCAGAUUCAACAGGAGAACUCUGUGCCCUUCCUAUAGACACCAAAUGUCUGGCA: 0.293

Set 3 — technique: RNA Bind-n-Seq; form: RNA; medium: in vitro; concentration: not given; notes: RNA with constant flanks, ends assumed; baseline: input RNA pool; direction: higher = stronger binding; measurement: bound/input enrichment
Target: RING finger protein unkempt homolog, zinc fingers 1-6, GST-SBP tag (UNK, Homo sapiens, UniProt Q9C0B0, residues 30-357)
Chain of UniProt Q9C0B0 (30-357, looked up): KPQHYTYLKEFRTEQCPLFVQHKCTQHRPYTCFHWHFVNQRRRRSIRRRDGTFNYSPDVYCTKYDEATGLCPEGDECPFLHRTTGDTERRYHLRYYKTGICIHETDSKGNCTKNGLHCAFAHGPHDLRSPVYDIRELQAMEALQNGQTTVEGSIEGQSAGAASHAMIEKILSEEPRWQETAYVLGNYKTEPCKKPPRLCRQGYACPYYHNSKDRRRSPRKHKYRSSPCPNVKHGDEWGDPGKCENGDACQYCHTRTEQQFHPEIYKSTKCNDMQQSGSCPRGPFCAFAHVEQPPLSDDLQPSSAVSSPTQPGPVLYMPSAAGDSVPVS
Constant ends, left off below: GGGAGUUCUACAGUCCGACGAUC … CAACAGAGGAUUGAGCAUCA
CCUGAAACUUCCUGCGGUAGCUCCCUCCCUUCAGAGUUACAUCAUUAUCCUGACUCUGUGCCGGUAAAUUUCCGUGAAAUUUUUGUACAAAAAAAAAGGUAAUGAAAGAACGUUGCAAAG: 0.275 ratio
AAAUCAGAACGUCCAUGUGAUGAAGACAAGACUGAUUCAGAGACAGGAAAGUUGAUCAUGUCCGUCAAUGAGUUUUAUUAUGGAAGGCAUGAAGGAGUCACUGAGAAAGAGCCAAAGACU: 0.201 ratio
UUCCCUGAAUUUCUGACAAUGAUGGCAAGAAAAAUGAAAGACACAGACAGUGAAGAAGAGAUCCGAGAAGCAUUCCGUGUGUUUGAUAAGGAUGGCAAUGGCUAUAUUAGUGCAGCAGAG: 0.372 ratio
ACAUCUUAUGAAAUGCUUAUUAAAGAGAAGUCUGUGUUCAAAAAAUUUAAUUGGAGAUACUCCGUAACCGAUGAAGCUCACAGGAUCAAAAAUGAAAAAUCUAAGUUGUCAGAAAUAGUG: 0.397 ratio
CUUAAUGUUUCAUAAGGAGUAAAUUCUGGCAACCAUGUUUCUUGACUUCAUCUACGGUAUACCGAGCAUAAGGAAUGACAGCAAUUUAAUAUGUACAGGUAGAUAAAUAACCAGCAUCUU: 0.226 ratio
UAACCUUAACAAACGGAUCAGCUAUCUCUACAAACACUUUAACCGACAUGGGAAGUACAGACCGGACGGGAAAUGUGUCACCCUGGAGAAGGGGAACAGGACUUAUCCCAGCAAGGAGAG: 0.205 ratio
AGAAAGCAAAACUUGGAACGAUUUAAGAAAGGAGACGUAAGAUUCUUGAUUUGCACAGAUGCCGCUGCUAGAGGGAUUGAUAUCCAUGGCGUUCCUUAUGUGAUCAACGUCACCCUGCCU: 0.113 ratio
UCCAGAAUACACCAAAAAAAUAGAAAACCUAUGUGCUAUGGGCUUUGAUAGGAAUGCAGUAACCGUGGCCUUGUCUUCAAAAUCAUGGGAUGUAGAGACUGCAACAGAAUUGCUUCUGAG: 0.98 ratio

Set 4 — technique: competition protein-binding microarray; form: double-stranded DNA, one strand shown; medium: in vitro; concentration: 2 µM; added: Pho4 competitor, 0.05 µM; direction: higher = stronger binding; measurement: fluorescence intensity; constant ends, left off below: … GTCTTGATTCGCTTGACGCTGCTG
Target: Centromere-binding protein 1, full length, His-tagged (CBF1, Saccharomyces cerevisiae, UniProt P17106, residues 1-351)
Chain of UniProt P17106 (whole entry, looked up): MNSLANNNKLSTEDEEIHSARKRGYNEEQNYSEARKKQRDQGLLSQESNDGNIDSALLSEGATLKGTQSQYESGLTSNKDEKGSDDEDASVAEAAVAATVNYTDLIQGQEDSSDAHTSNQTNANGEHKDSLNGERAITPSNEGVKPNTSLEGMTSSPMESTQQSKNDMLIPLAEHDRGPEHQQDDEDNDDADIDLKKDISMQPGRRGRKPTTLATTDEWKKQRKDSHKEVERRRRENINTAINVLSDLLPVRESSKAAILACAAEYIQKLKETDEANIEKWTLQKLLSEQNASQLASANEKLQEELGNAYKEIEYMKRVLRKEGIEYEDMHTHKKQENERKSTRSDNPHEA
Notes: whole 60-bp probe, lowest competitor level
CGGGCTGATCCCTTTATCGTGCATCTTGACCACTTT: 52.3 a.u.
CTTTCCCGATCTTGGCGGGTGGGTGTAGCACATTTG: 57.2 a.u.
GGTAATGACATTCGTCACGTGCTTTAGGGCTTGGTG: 6030 a.u.
GCTAATCGGCTATTTGACATGATGTCTTCCTTTCCT: 64.8 a.u.
CTAACGAAGGTTTGCGGCGTGGGTGACAAGCCAAGT: 58.1 a.u.
TGAACTTGGACAAACCTCGTGGTGAAATTTAAAAAT: 163 a.u.
CAACTTTCTTAGATATGCGTGCCGAAAGGCGACCCA: 58.8 a.u.
CTAACGAAGGTTTGCATAGTGGGTGACAAGCCAAGT: 67.8 a.u.
ATAATTGTGTACCGACACGTGCAAATTTGGTACGAA: 1910 a.u.
AAATTACTAAGTTGGACTGTGGGTGACGCCGTATGA: 71.7 a.u.
GCTAGAGTAAAATAGTGCATGACAAAAGATGAGCTA: 106 a.u.
GTCTTGTCTCATTGTCACCAGACTTTCCCCACTTCA: 101 a.u.
ACGCTGAATACTTGGCAGGTATGGCTTTCAACAATG: 79.1 a.u.
AAAGCGGTAATTTGCGACGTGGGTGCAGATATCTAT: 84.5 a.u.
CTTTTATGATCGAGTCACCTGACGAACCATTCTTGA: 1830 a.u.
AATGCTTGAAAAATTCTCGTGCAAACGGTCCCCTAC: 94.4 a.u.
ATCCCATTGGGTAAAAACGTGGTCGTCAAATGGCAA: 233 a.u.
CTTTCCCGATCTTGAGGGGTGGGTGTAGCACATTTG: 78.4 a.u.
AAACGGTCTTGGCATCAGGTGCAGTTGCCGTTTGTG: 88.3 a.u.

Set 5 — technique: protein binding microarray; form: double-stranded DNA, one strand shown; medium: in vitro; concentration: not given; baseline: not given; direction: higher = stronger binding; measurement: E-score
Target: Histone acetyltransferase KAT6A, both winged helices, GST fusion (KAT6A, Homo sapiens, UniProt Q92794, residues 1-181)
Notes: 8-mer, flanks averaged, mean of 2 arrays, mostly near background
Target sequence (chain): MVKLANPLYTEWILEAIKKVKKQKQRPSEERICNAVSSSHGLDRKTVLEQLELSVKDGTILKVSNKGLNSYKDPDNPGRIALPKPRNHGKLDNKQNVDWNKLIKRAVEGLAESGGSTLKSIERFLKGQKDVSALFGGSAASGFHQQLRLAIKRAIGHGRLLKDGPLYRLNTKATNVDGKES
GAGAATGC: 0.0606
TCAGTAAA: 0.0261
CTGAAATC: -0.11
CTGGTTCC: 0.0126
AATGAAGA: 0.0637
ACGAGTCT: -0.122
GTAAATGA: -0.103
GAGGGAAA: -0.205
ACGACTAG: -0.0131
AGAGGACC: -0.0865
ACAAGGAT: -0.0921
ACCCTACT: -0.171
GGCTCAAC: -0.0323
TCAAGACA: -0.0777
AAGTTAGG: -0.089
ATGTCCCC: -0.0282

For quick reference, copied from above (set 1):
AACUUA: 0.589
UGCAUA: 0.658
GUAGAG: 1.64
AUCAAC: 0.578
CAAUUC: 0.578
GCUUAA: 0.65
GCGAAA: 0.994
GGCGUC: 1.42
GAUGCG: 1.56
UACGAC: 0.625
